Experimental data gathered from unrelated publications.
Every numbered part comes from another study and shows a few of its results, in no order. Several values in a cell are separate wells, animals, samples, runs or records.
Chain of UniProt O94925 (whole entry, looked up): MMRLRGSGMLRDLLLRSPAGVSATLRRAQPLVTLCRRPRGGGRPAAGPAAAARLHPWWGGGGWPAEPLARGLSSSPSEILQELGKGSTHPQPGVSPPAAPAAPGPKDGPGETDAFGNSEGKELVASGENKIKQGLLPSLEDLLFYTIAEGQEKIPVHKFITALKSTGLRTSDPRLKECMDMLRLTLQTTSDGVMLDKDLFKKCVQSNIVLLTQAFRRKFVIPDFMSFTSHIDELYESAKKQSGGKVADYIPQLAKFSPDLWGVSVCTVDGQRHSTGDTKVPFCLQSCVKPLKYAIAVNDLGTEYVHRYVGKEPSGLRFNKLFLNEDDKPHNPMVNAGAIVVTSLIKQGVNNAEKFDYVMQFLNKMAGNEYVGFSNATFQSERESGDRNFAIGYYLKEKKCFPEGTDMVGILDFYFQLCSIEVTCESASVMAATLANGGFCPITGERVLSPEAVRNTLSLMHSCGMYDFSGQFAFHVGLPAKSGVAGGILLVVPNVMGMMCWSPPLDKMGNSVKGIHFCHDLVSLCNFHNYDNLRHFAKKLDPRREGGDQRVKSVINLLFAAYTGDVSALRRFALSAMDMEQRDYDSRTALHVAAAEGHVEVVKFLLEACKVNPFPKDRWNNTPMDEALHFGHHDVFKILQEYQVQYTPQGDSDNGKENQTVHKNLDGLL

Block 1
SMILES: NC/C(=C\F)COc1ccc(C(F)(F)F)c(Cn2c(=S)[nH]c(=O)c3[nH]cnc32)c1
Target: Myeloperoxidase (MPO, Homo sapiens, UniProt P05164)
Chain of UniProt P05164 (whole entry, looked up): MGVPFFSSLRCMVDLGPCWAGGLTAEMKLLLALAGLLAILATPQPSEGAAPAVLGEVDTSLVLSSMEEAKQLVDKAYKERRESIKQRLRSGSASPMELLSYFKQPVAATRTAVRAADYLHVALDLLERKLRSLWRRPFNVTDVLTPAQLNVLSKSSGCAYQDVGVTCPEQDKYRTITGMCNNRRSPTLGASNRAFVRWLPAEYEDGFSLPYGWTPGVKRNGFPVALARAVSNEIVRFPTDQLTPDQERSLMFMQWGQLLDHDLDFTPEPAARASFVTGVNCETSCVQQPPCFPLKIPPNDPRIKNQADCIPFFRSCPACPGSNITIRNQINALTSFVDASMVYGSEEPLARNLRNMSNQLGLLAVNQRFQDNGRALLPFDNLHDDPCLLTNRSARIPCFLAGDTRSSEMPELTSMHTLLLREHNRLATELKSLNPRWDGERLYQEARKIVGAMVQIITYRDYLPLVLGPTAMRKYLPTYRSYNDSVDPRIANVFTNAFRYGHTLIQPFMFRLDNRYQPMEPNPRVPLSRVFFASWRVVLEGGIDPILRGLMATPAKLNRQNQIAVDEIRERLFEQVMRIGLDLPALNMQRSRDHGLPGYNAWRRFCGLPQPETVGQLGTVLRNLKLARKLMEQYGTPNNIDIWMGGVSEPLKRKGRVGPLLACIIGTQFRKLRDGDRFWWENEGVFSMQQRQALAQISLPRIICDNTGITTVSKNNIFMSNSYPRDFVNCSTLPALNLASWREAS
Effect on: enzyme activity
Measurement: inhibition
concentration = 10 µM; value = 99.5% and 99.4%
concentration = 3.333 µM; value = 98.6%
mode = inhibitor; technique = fluorescence; concentration = 3.333 µM; value = 98.7%
concentration = 0.0046 µM; value = 13.4% and -2.25%
concentration = 0.0412 µM; value = 41.3% and 43.2%

Block 2
SMILES: CCN1/C(=C/C=C2\CCCC(/C=C/C3=[N+](CC)c4ccccc4C3(C)C)=C2NCCCCCCCCN2CCC(Nc3nc4ccccc4n3Cc3ccc(F)cc3)CC2)C(C)(C)c2ccccc21
Cell line: U-87 MG
Concentration: concentration not given
Reference: DMSO
Measurement: log2 fold change
item = IL1A mRNA; value = 3.15
item = CHST1 mRNA; value = -1.7
item = TNFRSF10B mRNA; value = 1.72
item = TMEM263 mRNA; value = 1.01
item = TGFB2 mRNA; value = -1.83
item = SNX18 mRNA; value = -0.855
item = RIPK2 mRNA; value = 1.46
item = PDE4D mRNA; value = 1.39

Other studies, line by line
SMILES = CC(=O)N[C@@H](Cc1c[nH]c2ccccc12)C(=O)N[C@@H](CCC(=O)C=[N+]=[N-])C(N)=O; system = C57BL/6 CES1-/- mouse GI homogenate; setting = 1 h, 37 °C; measurement = remaining compound; value = > 50%
SMILES = Cn1cc(-c2cccc(CN3CCC4(CC3)COc3c4ccc4c3CN([C@H]3CCC(=O)NC3=O)C4=O)c2)cn1; system = rats; setting = intravenous, 1.02 mg/kg; measurement = terminal volume of distribution; value = 3.43 L/kg
SMILES = CC(=O)NC(Cc1c[nH]c2ccccc12)C(=O)NC(CCC(=O)C=[N+]=[N-])C(=O)O (stereo not shown); target or system = GLS (Homo sapiens, UniProt O94925); assay = enzyme activity, inhibitor, radiometric; measurement = IC50; value = > 1000 µM
